Values quoted from earlier work as cited in several papers.
Each line is one published result; not all experiments were run side by side.
B1: CX3CL1, human; sequence looked up; chain QHHGVTKCNITCSKMTSKIPVALLIHYQQNQASCGKRAIILETRQHRLFCADPKEQWVKDAMQHLDRQAAALTRNGGTFEKQIGEVKPRTTPAAGGMDESVVLEPEATGESSSLEPTPSSQEAQRALGTSPELPTGVTGSSGTRLPPTPKAQDGGPVGTELFRVPPVSTAATWQSSAPHQPGPSLWAEAKTSEAPSTQDPSTQASTASSPAPEENAPSEGQRVWGQGQSPRPENSLEREEMGPVPAHTDAFQDWGPGSMAHVSVVPVSSEGTPSREPVASGSWTPKAEEPIHATMDPQRLGVLITPVPDAQAATRRQAVGLLAFLGLLFCLGVAMFTYQSLQGCPRKMAGEMAEGLRYIPRSCGSNSYVLVPV

Substance	tested on	assay	system	setting	quantity	result
DPDPE	human opioid receptor DOP	binding	–	–	Ki	0.5 to 3.98 nM
B1 (CX3CL1, human)	US28 E13A	binding, radioligand competition	–	–	Kd	0.5 nM
YRQSMNNFQGLRSFGCRFGTCTVQKLAHQIYQFTDKDKDNVAPRSKISPQGY (biotin-labelled)	–	–	human, plasma	–	half-life	22 min
AEQNPIYWARYADWLFTTPLLLLDLALLVDADEGT (pHLIP (Halobacterium salinarum))	–	NMR, item: Asp33	peptide, lipid membrane	numbering of the source	pKa	6.3
pegcetacoplan	–	–	cynomolgus monkey	daily, 7 days, non-GLP study	NOEL	> 20 mg/kg/day
enfortumab vedotin	–	–	monkey	–	clearance	1.2 mL/h/kg
CCL5	US28 D15A	binding, radioligand competition	–	–	Kd	1.9 nM
abciximab	–	–	PCI patients	dose not given, re-administration	anti-drug antibody incidence	20%
